{"data": "Results collected from several papers", "note": "Each numbered part is a random draw from the data of one study; scales do not carry over between parts."}
{"data": "Block 1", "target": "Sal-like protein 4, full length isoform B (SALL4, Homo sapiens, UniProt Q9UJQ4-2, residues 1-616)", "method": "universal PBM", "form": "double-stranded DNA, one strand shown", "matrix": "in vitro", "tested at": "not given", "setting": "8-mer, flanks averaged, mean of replicates", "direction": "higher = stronger binding"}
{"Strand": "ACCCCCGA", "E-score": 0.0811}
{"Strand": "TGGCTTAA", "E-score": 0.127}
{"Strand": "GACGTACC", "E-score": -0.0921}
{"Strand": "ATGGCTCG", "E-score": -0.0846}
{"data": "Block 2", "target": "PABPC1L2, full length, GST fusion (mouse, UniProt A0ABA7IW68)", "method": "RNAcompete", "form": "RNA", "matrix": "in vitro", "tested at": "20 nM", "setting": "7-mer, probes averaged, single round", "baseline": "mean of 7-mers", "direction": "higher = stronger binding", "Residues (chain)": "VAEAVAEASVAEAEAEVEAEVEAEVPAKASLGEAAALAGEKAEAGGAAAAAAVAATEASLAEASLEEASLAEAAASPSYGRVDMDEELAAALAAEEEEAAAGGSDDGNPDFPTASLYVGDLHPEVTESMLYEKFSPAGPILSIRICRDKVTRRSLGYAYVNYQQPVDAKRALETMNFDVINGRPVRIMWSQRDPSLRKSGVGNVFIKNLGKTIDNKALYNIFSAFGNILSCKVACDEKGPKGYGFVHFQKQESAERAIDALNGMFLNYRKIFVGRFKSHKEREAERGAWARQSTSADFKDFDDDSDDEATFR"}
{"Strand": "UAGAGCU", "7-mer Z-score": -0.0156}
{"Strand": "AGUUAUC", "7-mer Z-score": -0.133}
{"Strand": "UUACGAC", "7-mer Z-score": 0.0116}
{"data": "Block 3", "target": "RNA binding protein fox-1 homolog 2, RRM domain, GST-SBP tag (RBFOX2, Homo sapiens, UniProt O43251-10, residues 100-194)", "method": "RNA Bind-n-Seq", "form": "RNA", "matrix": "in vitro", "tested at": "365 nM", "setting": "natural RNA segment, single round, ends assumed", "baseline": "no-protein control", "direction": "higher = stronger binding"}
{"Strand": "GGGAGUUCUACAGUCCGACGAUCAUUUGUAUGGUAAAUAUAUACAUAGGUCCAUUUCAGAAAAAAAAUCAUGAUUGUAAAGGGAAUAUAUAACCACACAGAUUUUAUAGCUGCUUCCUGGUUAUCACUUACAUUGGAAUUCUCGGGUGCCAA", "RBNS enrichment (R)": 0.4}
{"Strand": "GGGAGUUCUACAGUCCGACGAUCUUUCCCUAGAGGCAAACAUUUCUUAAAAUGUUUCAUUUUCAUUAAAAAUGAAAGCCAAAUUUAUAUGCCACCGAUUGCAGGACACAAGCACAGUUUUAAGAGUUGUAUGAUGGAAUUCUCGGGUGCCAA", "RBNS enrichment (R)": 1}
{"Strand": "GGGAGUUCUACAGUCCGACGAUCACGGUGCGGUAAUGACUGCCCAGGCUGCCUGAGUCUCUGACCCUCUGAGGAGUUCGAGCAGGGCAGUCAGAUUUUUAAAGUUUUGUACAGUUUUCCUUUGUAUUCACUUCUGGAAUUCUCGGGUGCCAA", "RBNS enrichment (R)": 0.452}
{"Strand": "GGGAGUUCUACAGUCCGACGAUCAAAAAAAAGGUCUGUUCCUGCUACCUUUUAGGACUGAAGUUUUAAGCACUGGUACCCACUGUGGGGCAAACCUGUGCUGCAGGAGGGAGCCUGGCAUACACACUCUGCAUUGGAAUUCUCGGGUGCCAA", "RBNS enrichment (R)": 0.6}
{"data": "Mixed results"}
{"Substance": "PhoQ, residues 284 288 289 292 302 303 GASLAW", "target": "PhoP, residues 12 14 15 18 19 FWNTL (Escherichia coli, UniProt P23836)", "assay": "Sort-seq, measured: YFP reporter", "test system": "E. coli", "setting": "PhoQ-PhoP variant library, added: 10 µM Mg2+", "how to read": "baseline: high Mg2+ state, higher = stronger signaling", "measurement": "fold induction", "value": 1.48}
{"note": "Repeated from above (mixed results):"}
{"Substance": "PhoQ, residues 284 288 289 292 302 303 GASLAW", "target": "PhoP, residues 12 14 15 18 19 FWNTL (Escherichia coli, UniProt P23836)", "assay": "Sort-seq, measured: YFP reporter", "test system": "E. coli", "setting": "PhoQ-PhoP variant library, added: 10 µM Mg2+", "how to read": "baseline: high Mg2+ state, higher = stronger signaling", "measurement": "fold induction", "value": 1.48}
